# Measured values gathered from unrelated publications.
# Each numbered part is a random draw from the data of one study; scales do not carry over between parts.

# Sample 1
# Target: RNA binding protein fox-1 homolog 2, RRM domain, GST-SBP tag (RBFOX2, Homo sapiens, UniProt O43251-10, residues 100-194)
# Technique: RNA Bind-n-Seq
# Form: RNA
# Sample: in vitro
# Tested at: 365 nM
# Setting: natural RNA segment, single round, ends assumed
# Baseline: no-protein control
# Reading: higher = stronger binding
# Construct (chain): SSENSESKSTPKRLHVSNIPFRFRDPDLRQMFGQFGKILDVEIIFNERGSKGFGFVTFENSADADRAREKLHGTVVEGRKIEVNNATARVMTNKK
Strand,RBNS enrichment (R)
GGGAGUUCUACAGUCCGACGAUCCUUCUCCUUACUUCUUAUCCCCAACUCCCUACCCACCCCUCUUCAGUUUUCAGAUUGGAGAUUCAAGAUUUGUUCCACUUUACAAGCAAGAGGAAAAAAAAGCAACCUUCUGGAAUUCUCGGGUGCCAA,0.781
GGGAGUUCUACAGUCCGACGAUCCUAAGUUGCACCAACUUUGAAGUCUGAUUUUCCUGGACAGUUUUCUGCUUUAAUUUCAUGAAAAGAUUAUGAUCUCAGAAAUUGUAUCUUAGUUGGUAUCAACCAAAUGGUGGAAUUCUCGGGUGCCAA,0.393
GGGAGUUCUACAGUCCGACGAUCCAAGGAGAGUGGCAUAGGAGGGAAAAGCAUAUGUGGCUGAAACCUGUAAGUUGGUGUUGGUUAUGCAGAAAUGUGUAACAGAUCAAACGGUCCUCUCAAGUGUCUAUUAGUGGAAUUCUCGGGUGCCAA,0.297
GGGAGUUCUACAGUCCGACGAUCCCAACUGAAUAAGAGUUUGUAUUGUGUGUGUGUUCCUUGAAACCAAUGAUUUUCAAACUUUACAGCUUCAGAAUCACCCAGAGGGCUUGUUAAGACACUACUUGGUGGACUGGAAUUCUCGGGUGCCAA,0.29
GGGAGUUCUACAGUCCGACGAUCGACUUUGGGGGCAGAAAACCCUAUAAGUAUAACCAAGAGGAAAGUUUUUCACUAAGAAUUUAGUUAAAUUGUCUUUACUAUACAGCAAGAAAUCUCUUUAGAAGAAACUUUGGAAUUCUCGGGUGCCAA,0.519
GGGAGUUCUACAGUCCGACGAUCAAGGACAUUCUUUUUUAUUGGCGGCUCUGUGACCCCUAGCCGCUUGCACCCGCUCUCUGUUGUACACUUUCAAGCAACACUUUUUCAGACUAAAGGCCAAACAAAAGCUAUGGAAUUCUCGGGUGCCAA,0.275
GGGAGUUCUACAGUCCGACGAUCGUAAAAUAUAUUUGGAAUUUGAUGAACCAAAAAUGUGAUUUCAGAUGACUAUUUUGUGACUUUCUUAAAAGGUCUGAUUUGUAGACUUCUAAAUAUAACACACAGCACAGUGGAAUUCUCGGGUGCCAA,0.503
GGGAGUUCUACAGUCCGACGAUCGGAAUAAUAGUAAUAAAUGCACUUUUCACACUAAAAGUUUCUUUGUUCUCCUGUUAAGCCUAGAUCUUUCCCUAGUAGAUUGCAAACUCAACAGUCUGUGUGAUCCCAAAUGGAAUUCUCGGGUGCCAA,0.295
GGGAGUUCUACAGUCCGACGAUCUAUUUGUAUGCUUCCCAGAGAAGCUCAUUUCAUUACAAAAGGCACAUUUUAAAGCCUGCUGAUAACUGAGGAGGGCUAAUGAGAUAGGUUUGCUCGUCUGUAAUAGUUAUUGGAAUUCUCGGGUGCCAA,1.55
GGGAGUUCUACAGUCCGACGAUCUAAGAGUUUAUGUGAAGUAUACAUCUUUGUACUUGGAAGAGUCUAAGUUGUUUAUAUUUGGUAAAAGGUUCAUUUGUCCCUUUUAGCUCUUAAAUAUCUCGAUGUAUUUAUGGAAUUCUCGGGUGCCAA,1.67
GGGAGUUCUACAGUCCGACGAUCGCAAUGAGGAGAUACACGAUUCUGAAAGGUCAUCUGAAGCCUGAAACCCCUAGAGCAACCCCCUCUCCUAGCAUUGCCAAAUGCUGGUCUUGGUGAGGAUGGGUUUCAAAUGGAAUUCUCGGGUGCCAA,0.202
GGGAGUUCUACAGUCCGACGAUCACCAGAUACCUGGCUUUCCAUGGUGUGAGCAUUCAGACUGAGAUUAGAACCGCAAUGCAGGCUUGGGGAAUUGGCUCAGUCAGAGAAGGCCUUGCUUUGCAAGGAUGGUAUGGAAUUCUCGGGUGCCAA,2.99

# Sample 2
# Target: Prothrombin, mature alpha-thrombin (F2, Homo sapiens, UniProt P00734)
# Technique: aptamer microarray, sandwich
# Form: DNA with 2'F-ANA
# Sample: in vitro
# Tested at: 200 nM
# Setting: whole 15-mer aptamer, many near background
# Added: Cy3 exosite-II aptamer, 400 nM
# Reading: higher = stronger binding
# Strand: GGTTGGTGTGGTTGG
Modification,mean fluorescence intensity [a.u.]
2'F-ANA at 1 2 3 5 6 7 8 12 15,140
2'F-ANA at 3 5 6 7 9 10 11 12 13,57.4
2'F-ANA at 4 6 7 8 10 13 14,57.4
2'F-ANA at 2 4 8 10 11 12 14 15,61.3
2'F-ANA at 3 5 8 9 12 14,61.1
2'F-ANA at 3 5 6 7 8 11 12 14 15,60.5
2'F-ANA at 5 11 14,44.5
2'F-ANA at 1 2 4 5 7 8 11 12 13 14,51.9
2'F-ANA at 2 6 7 9 10,137
2'F-ANA at 1 3 4 5 6 7 9 12 14 15,51.2
2'F-ANA at 4 5 7 8 9 10 12,50.9
2'F-ANA at 2 3 5 6 7 8 10 13,50
2'F-ANA at 3 5 6 7 13 15,75
2'F-ANA at 1 2 4 10 11,49.5
2'F-ANA at 2 5 6 7 8 9 12 13 14,48.2
2'F-ANA at 2 3 5 6 9 15,88.8
2'F-ANA at 1 4 5 8 9 12 14 15,47.8
2'F-ANA at 1 2 5 10 13 15,51.4
2'F-ANA at 2 5 6 7 8 9 12 15,157
2'F-ANA at 2 8 9 10 12 14 15,92.8
2'F-ANA at 3 4 7 9 10 11 13 14 15,210

# Sample 3
# Target: Interferon regulatory factor 5, full length, phosphomimetic (IRF5, Homo sapiens, UniProt Q13568-2, residues 1-514, K96S/S451D/S453D/S456D/S462D)
# Technique: protein-binding microarray
# Form: double-stranded DNA, one strand shown
# Sample: in vitro
# Tested at: 250 nM
# Setting: 60-bp whole probe
# Added: salmon DNA 0.4 mg/ml
# Baseline: random background probes
# Reading: higher = stronger binding
# All sequences stand within: GCCTAGCAC … GTCTTGATTCGCTTGACGCTGCTG
Strand,log fluorescence [z-score]
TTAGGTCTCATTCTCCTTTAGTGCTAG,0.0405
TCAGTTTTGTGTGTGTGACTGTGCTAG,0.563
TTAGCTATCAGTCTCGATTAGTGCTAG,2.91
GACGATCTCGGTTTCGGGACGTGCTAG,3.24
GTAGGTTTCGGTTTCGGTTAGTGCTAG,11.8
TTGGATTTCAGACTGGATTAGTGCTAG,0.219
TTAGATCTCCGTATCGATTAGTGCTAG,3.97
GAGGAACTGAGTTTCGAGACGTGCTAG,4.82
GAAGGTATCGACTTTCGGGACGTGCTA,6.89
GACGGTCTGGGTATCGGGACGTGCTAG,0.537
GGATCTTGCAGATGTCGCTGGGTGCTA,-0.222
TCATGGTTCCCATTCCAACTGTGCTAG,-0.0616
AAAAATGATTGGTTGAACATGTGCTAG,0.46
GACGGTTTCGGGATCGGGACGTGCTAG,5.69
TTAGGACTGGACCATCGGTTAGTGCTA,-0.259
TCATATGCCGACTTTGGAACTGTGCTA,0.178
TCAATTGTGGATCTTGCACTGTGCTAG,0.093
ACCCTTGAGTGGTCCAGAGTGTGCTAG,-0.715
TTAGAGCTGAGACTGGATTAGTGCTAG,-0.296
GACGGGCTCGGTCTCGGGACGTGCTAG,-0.679
ATCATTTTCTCTGTTCTAGAGTGCTAG,2.24
GACGGACTTGGGTATCGGGACGTGCTA,0.283
GCTTTTTTTTTTTTTTTTTTGTGCTAG,1.12

# Other studies, line by line
Strand,target,technique,form,endpoint,result
GGAGTGCGCACTCC (dsDNA),"KAT6A 1-85 R79A (Homo sapiens, UniProt Q92794)",ITC,"double-stranded DNA, one strand shown",binding,binds

# Repeated from above (sample 2):
Modification,mean fluorescence intensity [a.u.]
2'F-ANA at 3 5 6 7 8 11 12 14 15,60.5
2'F-ANA at 5 11 14,44.5
2'F-ANA at 1 2 4 5 7 8 11 12 13 14,51.9
2'F-ANA at 2 6 7 9 10,137
2'F-ANA at 1 3 4 5 6 7 9 12 14 15,51.2
2'F-ANA at 4 5 7 8 9 10 12,50.9
2'F-ANA at 2 3 5 6 7 8 10 13,50
2'F-ANA at 3 5 6 7 13 15,75
